# Assay results collected from several papers.
# Each line is one published result; not all experiments were run side by side. Numbers after ± are the reported error.
# NR1H2 ligand-binding domain: Oxysterols receptor LXR-beta, ligand-binding domain (NR1H2, Homo sapiens, UniProt P55055)
# UniProt P55055, sequence (whole entry, looked up): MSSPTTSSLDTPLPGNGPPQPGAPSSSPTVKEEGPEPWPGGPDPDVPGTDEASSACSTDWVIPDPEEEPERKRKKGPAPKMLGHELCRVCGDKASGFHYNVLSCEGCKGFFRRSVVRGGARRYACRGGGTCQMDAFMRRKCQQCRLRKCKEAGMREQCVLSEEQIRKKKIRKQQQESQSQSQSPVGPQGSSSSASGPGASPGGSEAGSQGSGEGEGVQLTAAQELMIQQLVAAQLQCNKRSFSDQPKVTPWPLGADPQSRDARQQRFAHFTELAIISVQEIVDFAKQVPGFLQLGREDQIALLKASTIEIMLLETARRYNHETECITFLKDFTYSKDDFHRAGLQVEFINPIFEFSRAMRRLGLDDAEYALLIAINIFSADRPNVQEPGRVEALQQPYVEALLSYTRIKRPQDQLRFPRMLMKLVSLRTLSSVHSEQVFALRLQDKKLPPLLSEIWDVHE
# RARA: Retinoic acid receptor alpha (RARA, Homo sapiens, UniProt P10276)
# UniProt P10276, sequence (whole entry, looked up): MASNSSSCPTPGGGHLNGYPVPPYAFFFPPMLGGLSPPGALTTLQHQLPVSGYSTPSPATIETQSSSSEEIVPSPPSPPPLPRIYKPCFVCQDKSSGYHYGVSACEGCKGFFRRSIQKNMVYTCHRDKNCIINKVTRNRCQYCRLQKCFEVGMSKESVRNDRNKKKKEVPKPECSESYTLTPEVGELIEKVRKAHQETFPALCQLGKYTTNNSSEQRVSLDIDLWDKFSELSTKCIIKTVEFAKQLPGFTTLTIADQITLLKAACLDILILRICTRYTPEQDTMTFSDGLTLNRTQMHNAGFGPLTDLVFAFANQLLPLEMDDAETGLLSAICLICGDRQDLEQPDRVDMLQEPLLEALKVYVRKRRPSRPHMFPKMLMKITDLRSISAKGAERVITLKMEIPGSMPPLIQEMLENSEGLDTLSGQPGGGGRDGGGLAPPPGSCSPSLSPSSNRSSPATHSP
# FFAR3: Free fatty acid receptor 3 (FFAR3, Homo sapiens, UniProt O14843)
# UniProt O14843, sequence (whole entry, looked up): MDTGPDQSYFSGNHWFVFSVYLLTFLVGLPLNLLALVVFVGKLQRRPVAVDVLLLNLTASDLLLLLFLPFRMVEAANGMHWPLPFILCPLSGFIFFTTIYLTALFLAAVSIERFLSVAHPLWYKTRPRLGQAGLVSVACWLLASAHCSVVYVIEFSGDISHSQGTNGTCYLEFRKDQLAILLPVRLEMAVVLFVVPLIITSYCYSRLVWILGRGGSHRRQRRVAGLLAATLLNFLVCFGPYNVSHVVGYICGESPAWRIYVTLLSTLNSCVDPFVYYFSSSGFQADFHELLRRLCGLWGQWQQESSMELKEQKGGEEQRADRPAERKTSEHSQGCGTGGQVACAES
# UniProt P51812, sequence (whole entry, looked up): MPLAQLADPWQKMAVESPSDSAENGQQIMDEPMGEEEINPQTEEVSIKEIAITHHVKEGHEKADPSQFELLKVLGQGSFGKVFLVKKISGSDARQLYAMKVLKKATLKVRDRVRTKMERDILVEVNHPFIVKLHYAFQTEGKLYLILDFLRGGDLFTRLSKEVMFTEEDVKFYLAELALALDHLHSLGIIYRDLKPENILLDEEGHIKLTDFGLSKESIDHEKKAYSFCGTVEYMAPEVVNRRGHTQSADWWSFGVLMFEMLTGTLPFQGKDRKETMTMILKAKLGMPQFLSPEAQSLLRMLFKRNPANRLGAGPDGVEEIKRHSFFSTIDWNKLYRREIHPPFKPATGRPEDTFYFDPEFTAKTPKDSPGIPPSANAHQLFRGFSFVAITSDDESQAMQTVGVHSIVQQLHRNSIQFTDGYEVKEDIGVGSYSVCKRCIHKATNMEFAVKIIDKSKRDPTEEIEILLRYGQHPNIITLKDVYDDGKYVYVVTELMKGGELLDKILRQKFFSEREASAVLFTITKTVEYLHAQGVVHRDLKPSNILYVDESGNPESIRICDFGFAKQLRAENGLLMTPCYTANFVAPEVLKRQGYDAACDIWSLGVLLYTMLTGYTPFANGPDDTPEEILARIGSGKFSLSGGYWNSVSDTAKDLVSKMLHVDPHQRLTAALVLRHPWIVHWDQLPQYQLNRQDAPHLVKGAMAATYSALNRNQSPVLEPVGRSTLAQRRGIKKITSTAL
# UniProt Q9WUP1, sequence (whole entry, looked up): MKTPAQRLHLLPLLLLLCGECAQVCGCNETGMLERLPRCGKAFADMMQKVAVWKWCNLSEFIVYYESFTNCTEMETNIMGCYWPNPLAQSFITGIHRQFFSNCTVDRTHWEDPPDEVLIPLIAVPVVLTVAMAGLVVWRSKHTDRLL
# UniProt P30969, sequence (whole entry, looked up): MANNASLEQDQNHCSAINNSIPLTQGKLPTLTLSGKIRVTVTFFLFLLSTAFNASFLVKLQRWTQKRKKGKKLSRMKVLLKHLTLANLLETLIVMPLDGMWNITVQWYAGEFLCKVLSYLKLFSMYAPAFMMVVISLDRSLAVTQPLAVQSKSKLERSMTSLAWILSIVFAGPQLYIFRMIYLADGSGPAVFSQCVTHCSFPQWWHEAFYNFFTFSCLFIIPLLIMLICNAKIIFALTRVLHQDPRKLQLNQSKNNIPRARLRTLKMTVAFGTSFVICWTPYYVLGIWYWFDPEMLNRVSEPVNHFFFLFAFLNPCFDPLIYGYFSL
# UniProt Q6W5P4, sequence (whole entry, unmodified, looked up): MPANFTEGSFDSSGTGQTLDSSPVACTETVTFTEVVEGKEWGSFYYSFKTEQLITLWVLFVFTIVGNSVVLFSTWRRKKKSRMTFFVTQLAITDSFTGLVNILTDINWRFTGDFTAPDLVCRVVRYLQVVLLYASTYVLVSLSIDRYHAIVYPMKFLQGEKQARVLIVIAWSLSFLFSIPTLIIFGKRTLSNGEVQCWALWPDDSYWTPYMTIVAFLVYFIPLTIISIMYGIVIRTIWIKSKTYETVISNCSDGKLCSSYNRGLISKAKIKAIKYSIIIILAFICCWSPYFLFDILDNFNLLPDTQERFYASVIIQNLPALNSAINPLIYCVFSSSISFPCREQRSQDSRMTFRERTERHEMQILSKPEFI
# UniProt P54764, sequence (whole entry, looked up): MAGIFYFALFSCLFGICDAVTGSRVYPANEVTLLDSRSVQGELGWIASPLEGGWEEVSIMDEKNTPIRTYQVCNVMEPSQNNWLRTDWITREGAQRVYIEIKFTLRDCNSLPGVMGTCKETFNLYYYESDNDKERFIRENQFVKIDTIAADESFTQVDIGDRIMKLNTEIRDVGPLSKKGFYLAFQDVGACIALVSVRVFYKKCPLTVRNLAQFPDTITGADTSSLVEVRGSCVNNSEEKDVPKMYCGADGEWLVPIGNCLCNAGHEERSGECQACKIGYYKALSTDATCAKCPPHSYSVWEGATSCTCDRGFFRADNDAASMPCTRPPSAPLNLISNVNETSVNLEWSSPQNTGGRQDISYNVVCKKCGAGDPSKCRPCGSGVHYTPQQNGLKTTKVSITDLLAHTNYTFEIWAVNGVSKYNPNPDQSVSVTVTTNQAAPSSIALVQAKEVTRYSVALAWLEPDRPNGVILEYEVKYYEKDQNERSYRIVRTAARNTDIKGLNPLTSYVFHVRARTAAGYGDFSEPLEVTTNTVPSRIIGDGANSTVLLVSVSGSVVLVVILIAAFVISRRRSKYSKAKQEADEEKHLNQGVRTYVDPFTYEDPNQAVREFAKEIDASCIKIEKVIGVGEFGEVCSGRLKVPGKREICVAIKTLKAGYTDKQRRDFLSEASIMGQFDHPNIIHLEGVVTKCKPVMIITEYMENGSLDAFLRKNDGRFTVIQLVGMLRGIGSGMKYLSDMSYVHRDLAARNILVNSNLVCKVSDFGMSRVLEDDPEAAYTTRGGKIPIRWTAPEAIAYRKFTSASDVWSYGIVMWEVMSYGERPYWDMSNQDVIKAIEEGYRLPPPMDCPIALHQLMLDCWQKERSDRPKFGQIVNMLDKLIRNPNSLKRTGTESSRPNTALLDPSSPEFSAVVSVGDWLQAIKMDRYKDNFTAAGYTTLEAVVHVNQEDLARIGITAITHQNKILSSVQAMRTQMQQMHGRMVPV
# UniProt P43119, sequence (whole entry, looked up): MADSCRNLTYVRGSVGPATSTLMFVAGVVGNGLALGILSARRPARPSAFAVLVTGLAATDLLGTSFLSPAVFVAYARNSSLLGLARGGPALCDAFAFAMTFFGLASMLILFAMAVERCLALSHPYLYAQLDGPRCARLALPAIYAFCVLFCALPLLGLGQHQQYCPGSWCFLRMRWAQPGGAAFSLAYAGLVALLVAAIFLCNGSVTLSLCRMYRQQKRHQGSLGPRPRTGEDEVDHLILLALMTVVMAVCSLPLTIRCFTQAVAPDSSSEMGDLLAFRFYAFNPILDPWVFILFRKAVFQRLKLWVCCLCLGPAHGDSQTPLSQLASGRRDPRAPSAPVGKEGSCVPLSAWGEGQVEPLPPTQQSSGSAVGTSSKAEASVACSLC
# UniProt Q03431, sequence (whole entry, looked up): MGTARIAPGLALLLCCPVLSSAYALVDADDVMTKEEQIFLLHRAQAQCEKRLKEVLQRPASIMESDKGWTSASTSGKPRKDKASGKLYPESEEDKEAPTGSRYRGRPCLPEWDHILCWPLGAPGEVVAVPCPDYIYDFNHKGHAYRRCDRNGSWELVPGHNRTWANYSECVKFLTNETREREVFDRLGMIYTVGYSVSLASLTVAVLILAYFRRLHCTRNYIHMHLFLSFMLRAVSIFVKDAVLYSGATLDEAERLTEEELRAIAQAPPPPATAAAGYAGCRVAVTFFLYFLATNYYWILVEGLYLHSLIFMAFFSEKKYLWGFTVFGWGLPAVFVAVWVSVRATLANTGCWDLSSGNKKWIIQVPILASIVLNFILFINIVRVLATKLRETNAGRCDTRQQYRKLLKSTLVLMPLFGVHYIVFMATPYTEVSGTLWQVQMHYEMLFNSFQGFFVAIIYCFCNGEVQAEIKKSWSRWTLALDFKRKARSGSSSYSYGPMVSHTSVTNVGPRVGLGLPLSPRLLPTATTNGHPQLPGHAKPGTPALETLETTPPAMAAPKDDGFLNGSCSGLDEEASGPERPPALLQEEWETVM
SMILES,target,assay,system,setting,EC50 [µM]
Cc1cnc(C(=O)N[C@@H](Cc2cn(C(C)C)cn2)C(=O)N2CCC[C@H]2C(N)=O)cn1,"Thyrotropin-releasing hormone receptor (Mus musculus, UniProt P21761)","calcium signal, agonist, fluorescence",,,0.012
CSCC[C@H](NC(=O)[C@H](CC(C)C)NC(=O)[C@H](Cc1cnc[nH]1)NC(=O)CNC(=O)[C@@H](NC(=O)[C@H](C)NC(=O)[C@H](Cc1c[nH]c2ccccc12)NC(=O)[C@H](CCC(N)=O)NC(=O)[C@H](CC(N)=O)NC(=O)CNC(=O)[C@H](CC(C)C)NC(=O)[C@H](CCCN=C(N)N)NC(=O)[C@H](CCC(N)=O)NC(=O)[C@@H]1CCC(=O)N1)C(C)C)C(N)=O,"ERBB3 (Homo sapiens, UniProt P21860)","receptor phosphorylation, inhibitor, Western blot",H441,3 min,0.0065 ± 0.001
CN(C(=O)c1ccc(F)cc1Cl)c1ccc(C(O)(C(F)(F)F)C(F)(F)F)cc1,NR1H2 ligand-binding domain,agonist,,concentration not given,4 ± 0.1
CC1(C)CCC(C)(C)c2cc(/C(=N\O)c3cc4cc(C(=O)O)ccc4[nH]3)ccc21,RARA,"reporter gene, agonist, luciferase",,,> 5
CC[C@H](C)[C@H](NC(=O)[C@@H]1CCCN1C(=O)CNC(=O)[C@H](Cc1ccccc1)NC(=O)[C@H](CC(N)=O)NC(=O)[C@H](CC(N)=O)NC(=O)[C@H](CO)NC(=O)[C@H](CO)NC(=O)[C@H](Cc1c[nH]cn1)NC(=O)[C@@H](NC(=O)[C@H](CC(C)C)NC(=O)[C@H](Cc1ccccc1)NC(=O)[C@H](CC(N)=O)NC(=O)[C@H](C)NC(=O)[C@H](CC(C)C)NC(=O)[C@H](CCCNC(=N)N)NC(=O)[C@H](CCC(N)=O)NC(=O)[C@@H](NC(=O)[C@H](C)NC(=O)[C@@H]1CSSC[C@H](NC(=O)[C@@H](N)CCCCN)C(=O)N[C@@H](CC(N)=O)C(=O)N[C@@H]([C@@H](C)O)C(=O)N[C@@H](C)C(=O)N[C@@H]([C@@H](C)O)C(=O)N1)[C@@H](C)O)C(C)C)C(=O)N[C@@H](CC(C)C)C(=O)N1CCC[C@H]1C(=O)N1CCC[C@H]1C(=O)N[C@H](C(=O)N[C@@H](CC(N)=O)C(=O)N[C@H](C(=O)NCC(=O)N[C@@H](CO)C(=O)N[C@@H](CC(N)=O)C(=O)N[C@H](C(=O)N[C@@H](Cc1ccc(O)cc1)C(N)=O)[C@@H](C)O)C(C)C)[C@@H](C)O,"Calcrl/Ramp3 (Mus musculus, UniProt Q9R1W5+Q9WUP1)","cAMP production, agonist","COS-7, transfected","15 min, 37 °C, added: IBMX 1 mM",0.0257
O=C(O)COc1cccc(NC(=O)c2cc(-c3cccc(F)c3)ccc2F)c1,"PTGIR (Homo sapiens, UniProt P43119)","calcium signal, agonist, fluorescence",,,> 10
NC(=O)CNC(=O)[C@@H]1CCCN1C(=O)[C@H](Cc1ccc(O)cc1)NC(=O)[C@H](Cc1c[nH]c2ccccc12)NC(=O)[C@@H](Cc1c[nH]c2ccccc12)NC(=O)[C@H](Cc1c[nH]cn1)NC(=O)[C@H](CO)NC(=O)[C@H](Cc1c[nH]c2ccccc12)NC(=O)[C@H](Cc1c[nH]cn1)NC(=O)[C@@H]1CCC(=O)N1,"Gonadotropin-releasing hormone receptor (Rattus norvegicus, UniProt P30969)","inositol phosphate accumulation, agonist",HEK293 expressing Gonadotropin-releasing hormone receptor,"60 min, 37 °C, added: 10 mM LiCl",0.0059 ± 0.0009
C=CC(=O)O,FFAR3,agonist,,,912
N=C(N)NCCC[C@H](NC(=O)[C@H](Cc1ccccc1)NC(=O)[C@@H](N)CO)C(=O)N[C@@H](CC(N)=O)C(N)=O,"NPSR1 (Homo sapiens, UniProt Q6W5P4, N107I)","calcium signal, agonist, fluorescence",,,0.00243
C#CC(=O)O,FFAR3,agonist,,,> 1000
O=C(O)c1ccc(-c2nc(-c3cccc(C(F)(F)F)c3)cs2)cc1,RARA,,,,0.021
CC[C@H](C)[C@H](NC(=O)[C@H](CO)NC(=O)[C@H](CCCCN)NC(=O)CNC(=O)[C@H](CCCCN)NC(=O)[C@H](CC(=O)O)NC(=O)[C@H](Cc1c[nH]cn1)NC(=O)[C@H](CC(C)C)NC(=O)[C@H](CC(C)C)NC(=O)[C@H](CCC(N)=O)NC(=O)[C@H](Cc1c[nH]cn1)NC(=O)[C@H](CCC(=O)O)NC(=O)[C@H](CO)NC(=O)[C@@H](NC(=O)[C@H](C)N)C(C)C)C(=O)N[C@@H](CCC(N)=O)C(=O)N[C@@H](CC(=O)O)C(=O)N[C@@H](CC(C)C)C(=O)N[C@@H](CCC(=O)O)C(=O)N[C@@H](CCCNC(=N)N)C(=O)N[C@H](C(=O)N[C@@H](CCC(=O)O)C(=O)N[C@@H](Cc1c[nH]c2ccccc12)C(=O)N[C@@H](CC(C)C)C(=O)N[C@@H](CCCNC(=N)N)C(=O)N[C@@H](CCCCN)C(=O)N[C@@H](CCCCN)C(=O)N[C@@H](CC(C)C)C(=O)N[C@@H](CCC(N)=O)C(=O)N[C@@H](CC(=O)O)C(=O)N[C@H](C(=O)N[C@@H](Cc1c[nH]cn1)C(=O)N[C@@H](CC(N)=O)C(=O)N[C@@H](Cc1ccccc1)C(=O)N[C@@H](CCCCNC(=O)c1ccc2c(c1)C1(OC2=O)c2ccc(N(C)C)cc2Oc2cc(N(C)C)ccc21)C(N)=O)C(C)C)C(C)C,"PTH1R (Homo sapiens, UniProt Q03431)","cAMP formation, agonist, GloSensor",HEK293 GP2.3,15 min,0.00016 ± 4e-05
COc1cc(-c2cnc3nc2NCCCNS(=O)(=O)c2cc(ccc2OC)N3)ccc1F,"EPHA4 (Homo sapiens, UniProt P54764)","target engagement in cells, BRET",,,0.037
CN(C(=O)c1cccc(Cl)c1Cl)c1ccc(C(O)(C(F)(F)F)C(F)(F)F)cc1,NR1H2 ligand-binding domain,agonist,,concentration not given,2.37 ± 0.02
N#C/C(=C\c1cccc(-c2cn[nH]c2)c1)C(N)=O,"RPS6KA3 (Homo sapiens, UniProt P51812)","inhibitor, Western blot",transfected COS-7,added: PMA,~20
CCC(=O)O,FFAR3,agonist,,,107
CCOc1ccccc1-c1nnc2n1N=C(c1ccc(NC3CCCCC3)cc1)CS2,"CXCR4 (Homo sapiens, UniProt P61073)","β-arrestin recruitment, agonist",,,0.77

# For quick reference, copied from above:
SMILES,target,assay,system,setting,EC50 [µM]
Cc1cnc(C(=O)N[C@@H](Cc2cn(C(C)C)cn2)C(=O)N2CCC[C@H]2C(N)=O)cn1,"Thyrotropin-releasing hormone receptor (Mus musculus, UniProt P21761)","calcium signal, agonist, fluorescence",,,0.012
CSCC[C@H](NC(=O)[C@H](CC(C)C)NC(=O)[C@H](Cc1cnc[nH]1)NC(=O)CNC(=O)[C@@H](NC(=O)[C@H](C)NC(=O)[C@H](Cc1c[nH]c2ccccc12)NC(=O)[C@H](CCC(N)=O)NC(=O)[C@H](CC(N)=O)NC(=O)CNC(=O)[C@H](CC(C)C)NC(=O)[C@H](CCCN=C(N)N)NC(=O)[C@H](CCC(N)=O)NC(=O)[C@@H]1CCC(=O)N1)C(C)C)C(N)=O,"ERBB3 (Homo sapiens, UniProt P21860)","receptor phosphorylation, inhibitor, Western blot",H441,3 min,0.0065 ± 0.001
CN(C(=O)c1ccc(F)cc1Cl)c1ccc(C(O)(C(F)(F)F)C(F)(F)F)cc1,NR1H2 ligand-binding domain,agonist,,concentration not given,4 ± 0.1
